Experimental data collected from several papers.
Numbers after ± are the reported error.

`CCCC[C@H](NC(=O)CCCCCCCNC(=O)CN1CCN(CC(=O)O)CCN(CC(=O)O)CC1)C(=O)N[C@H]1CC(=O)NCCCC[C@@H](C(N)=O)NC(=O)[C@H](Cc2c[nH]c3ccccc23)NC(=O)[C@H](CCCNC(=N)N)NC(=O)[C@@H](Cc2ccccc2)NC(=O)[C@H](Cc2c[nH]cn2)NC1=O` [fluorine-18 labelled] gave a tissue uptake of 0.06 ± 0.11 %ID/g (C57 mice B16-F10 melanoma, pancreas; intravenous, 0.37 MBq, 1 h).
With `COc1ccc(Nc2nc(Nc3ccc(OCCOCCOCC[18F])cc3)ncc2Br)cc1` the tissue uptake was 4.65 ± 0.28 %ID/g (ICR mice, S180 tumour-bearing, liver; intravenous, 370 kBq, 15 min).
For `CC(C)C[C@H](NC(=O)[C@@H](CCCCNC(=O)[C@@H](Cc1ccccc1)NC(=O)CCCCCCCNC(=O)CN1CCN(CC(=O)O)CCN(CC(=O)O)CCN(CC(=O)O)CC1)NC(=O)[C@H](Cc1ccc(O)cc1)NC(=O)[C@H](CO)NC(=O)[C@H](Cc1c[nH]c2ccccc12)NC(=O)[C@H](Cc1c[nH]cn1)NC(=O)[C@@H]1CCC(=O)N1)C(=O)N[C@@H](CCCNC(=N)N)C(=O)N1CCC[C@H]1C(=O)NCC(N)=O` [indium-111 labelled], the tissue uptake was 0.09 ± 0.04 %ID/g (biodistribution; male athymic nude mice, DU-145 prostate cancer xenograft, brain; intravenous, 0.037 MBq, 0.5 h post-injection).
For `Cc1cc(C)n(CCN(CCN)CCCCCCNC(=O)[C@@H](N)Cc2c[nH]cn2)n1.[99Tc+].[C-]#[O+].[C-]#[O+].[C-]#[O+]`, the tissue uptake was 1.44 ± 0.03 %IA/g (BALB/c nude mice, A549 xenograft, lung; intravenous, 15 min).
`O=C(NCC1OC2CCC=CCCC2O1)c1ccc([18F])nc1` (stereo not shown) has a tissue uptake of 3.9 ± 0.4 %ID/g (healthy female BALB/c nude mice, stomach; intravenous, 7.4 MBq per mouse, 2 min).
With `CCCC[C@H](NC(=O)CNC(=O)CNC(=O)[C@H](CCCCNC(=O)[C@H](CC(=O)O)NC(=O)C(C)c1ccc(CC(C)C)cc1)NC(=O)CN1CCN(CC(=O)O)CCN(CC(=O)O)CCN(CC(=O)O)CC1)C(=O)N[C@H]1CC(=O)NCCCC[C@@H](C(N)=O)NC(=O)[C@H](Cc2c[nH]c3ccccc23)NC(=O)[C@H](CCCNC(=N)N)NC(=O)[C@@H](Cc2ccccc2)NC(=O)[C@H](Cc2c[nH]cn2)NC1=O` (stereo partly shown) [lutetium-177 labelled] the tissue uptake was 0.24 ± 0.05 %ID/g (C57 mice, tumour-bearing, pancreas; intravenous, 0.037 MBq, 24 h).
`O=C(NCC1OC2CCC=CCCC2O1)c1ccc(COCCOCCOCC[18F])cc1` (stereo not shown) gave a tissue uptake of 3.1 ± 0.1 %ID/g (healthy female BALB/c nude mice, kidneys; intravenous, 7.4 MBq per mouse, 120 min).
For `CCCC[C@H](NC(=O)COCCOCCNC(=O)CN1CCN(CC(=O)O)CCN(CC(=O)O)CC1)C(=O)N[C@H]1CC(=O)NCCCC[C@@H](C(N)=O)NC(=O)[C@H](Cc2c[nH]c3ccccc23)NC(=O)[C@H](CCCNC(=N)N)NC(=O)[C@@H](Cc2ccccc2)NC(=O)[C@H](Cc2c[nH]cn2)NC1=O` [fluorine-18 labelled], the tissue uptake was 17.4 ± 0.76 %ID/g (C57 mice B16-F10 melanoma, tumor; intravenous, 0.37 MBq, 1 h).
`COc1ccc(Nc2nc(Nc3ccc(OCCOCC[18F])cc3)ncc2Br)cc1` has a tissue uptake of 2.61 ± 0.25 %ID/g (ICR mice, S180 tumour-bearing, heart; intravenous, 370 kBq, 120 min).
The tissue uptake of `N#C[C@@H]1CCCN1C(=O)CNC(=O)c1ccnc2ccc(OCCCN3CCN(C(=O)CCc4ccc5c(c4)CN4CCN6CC(=O)[O][68Ga-]([O]C(=O)C4)([O]5)[O]c4ccc(CCC(=O)N5CCN(CCCOc7ccc8nccc(C(=O)NCC(=O)N9CCC[C@H]9C#N)c8c7)CC5)cc4C6)CC3)cc12` is reported as 0.05 ± 0.01 %ID/g (BALB/c nude mice, U-87 MG xenograft, brain; 1 h, blocking, together with: DOTA-FAPI-04 40 nmol/mouse co-injected).
The tissue uptake of `O=C([O-])CN1CCN(CC(=O)[O-])CCN(CC(=O)NC[C@H]2CC[C@H](C(=O)N[C@H](Cc3cnc4ccccc4c3)C(=O)NCCCC[C@H](NC(=O)N[C@@H](CCC(=O)O)C(=O)O)C(=O)O)CC2)CCN(CC(=O)[O-])CC1.[64Cu+2]` is reported as 11 %ID/g (ex vivo gamma counting; 22Rv1 tumour-bearing mice, intestine; intravenous, 0.74 MBq, 24 h post-injection).
For `Cc1cc(C)n(CCN(CCN)CCCCCCNC(=O)[C@@H](N)Cc2c[nH]c3ccccc23)n1.[99Tc+].[C-]#[O+].[C-]#[O+].[C-]#[O+]`, the tissue uptake was 1.13 ± 0.13 %IA/g (BALB/c nude mice, A549 xenograft, heart; intravenous, 15 min).
The tissue uptake of `COc1ccc2c(c1)C(C)(C)C(/C=C/C1=C(Oc3ccc(C(=O)NCCCCOc4cc(CN(Cc5ccccn5)Cc5ccccn5)cc(CN(Cc5ccccn5)Cc5ccccn5)c4)cc3)C(=C/C=C3/N(CCCCS(=O)(=O)[O-])c4ccc(OC)cc4C3(C)C)CCC1)=[N+]2CCCCS(=O)(=O)[O-].O=[N+]([O-])[O-].O=[N+]([O-])[O-].[99Tc+].[C-]#[O+].[C-]#[O+].[C-]#[O+].[Zn+2]` is reported as 21.1 %ID/g (BALB/c mice, S. aureus myositis, liver; 12 h post-injection).

Repeated from above:
The tissue uptake of `O=C([O-])CN1CCN(CC(=O)[O-])CCN(CC(=O)NC[C@H]2CC[C@H](C(=O)N[C@H](Cc3cnc4ccccc4c3)C(=O)NCCCC[C@H](NC(=O)N[C@@H](CCC(=O)O)C(=O)O)C(=O)O)CC2)CCN(CC(=O)[O-])CC1.[64Cu+2]` is reported as 11 %ID/g (ex vivo gamma counting; 22Rv1 tumour-bearing mice, intestine; intravenous, 0.74 MBq, 24 h post-injection).
For `Cc1cc(C)n(CCN(CCN)CCCCCCNC(=O)[C@@H](N)Cc2c[nH]c3ccccc23)n1.[99Tc+].[C-]#[O+].[C-]#[O+].[C-]#[O+]`, the tissue uptake was 1.13 ± 0.13 %IA/g (BALB/c nude mice, A549 xenograft, heart; intravenous, 15 min).
